Measured values collected from several papers.
Each line is one published result; not all experiments were run side by side. ± gives the spread as reported.

CCOc1c([C@H](C)n2nc(C)c3c(N)ncnc32)cc(Cl)c(F)c1[C@@H]1CNC(=O)C1
half-life geometric mean (patients, monotherapy; oral, 30 mg once daily, cycle 1 day 15): 8 h

COc1cc(-c2nc3ccccc3c(=O)n2Nc2ccc([N+](=O)[O-])cc2[N+](=O)[O-])ccc1OCc1cn(CC(=O)Nc2cccc(C)c2C)nn1
IC50 (mushroom tyrosinase; inhibitor, colorimetric; added: L-DOPA substrate): 34.3 ± 2.79 µM

O=C(NCc1ccccc1)c1cn(Cc2ccc(C(F)(F)F)cc2)c2ccc(Oc3ccccc3)cc2c1=O
CC50 (MDA-MB-231/LM2-4; DNS; 48 h, 10% FBS): 33.1 µM

CC[C@H](C)[C@H](NC(=O)[C@@H]1CCCN1C(=O)CNC(=O)[C@H](Cc1ccccc1)NC(=O)[C@H](CC(N)=O)NC(=O)[C@H](CC(N)=O)NC(=O)[C@H](CO)NC(=O)[C@H](CO)NC(=O)[C@H](Cc1c[nH]cn1)NC(=O)[C@H](CCCNC(=N)N)NC(=O)[C@H](CC(C)C)NC(=O)[C@H](Cc1ccccc1)NC(=O)[C@H](CCC(=O)O)NC(=O)[C@H](C)NC(=O)[C@H](CC(C)C)NC(=O)[C@H](CCCNC(=N)N)NC(=O)[C@H](CCC(N)=O)NC(=O)[C@@H](NC(=O)[C@H](C)NC(=O)[C@@H]1CSSC[C@H](NC(=O)[C@H](CCCCN)NC(=O)CC[C@H](NC(=O)CCCCCCCCCCCCCCCCCCC(=O)O)C(=O)O)C(=O)N[C@@H](CC(N)=O)C(=O)N[C@@H]([C@@H](C)O)C(=O)N[C@@H](C)C(=O)N[C@@H]([C@@H](C)O)C(=O)N1)[C@@H](C)O)C(=O)N[C@@H](CC(C)C)C(=O)N1CCC[C@H]1C(=O)N1CCC[C@H]1C(=O)N[C@H](C(=O)N[C@@H](CC(N)=O)C(=O)N[C@H](C(=O)NCC(=O)N[C@@H](CO)C(=O)N[C@@H](CC(N)=O)C(=O)N[C@H](C(=O)N1CCC[C@H]1C(N)=O)[C@@H](C)O)C(C)C)[C@@H](C)O
ED50 (conditioned taste avoidance; lean male Sprague-Dawley rat; subcutaneous, 72 h): 4.2 nmol/kg

COc1ccc(N=Nc2c(N)nn3c(-c4ccc(Cl)cc4Cl)cc(-c4ccc(OCc5ccccc5)cc4)nc23)cc1
MBC/MIC ratio (Enterococcus faecalis; broth microdilution; MTCC 0459): 4

COc1cc(/C=N/NC(=S)N/N=C/c2ccccc2)ccc1Oc1ccnc2cc(Cl)ccc12
IC50 (human lysosomal acid alpha-glucosidase; inhibitor; added: pNPG substrate): 12.4 ± 0.69 µg/mL

Nc1nn2c(-c3ccc(Cl)cc3Cl)cc(-c3ccc(OCc4ccccc4)cc3)nc2c1N=Nc1ccc(F)cc1
MBC/MIC ratio (Escherichia coli; ATCC 25955): 8

C[C@H]1O[C@H](O[C@H]2[C@H](O)[C@@H](O)[C@@H](O[C@H]3[C@H](O)[C@@H](O)C(O)O[C@@H]3CO)O[C@@H]2CO)[C@H](O)[C@@H](O)[C@@H]1N[C@H]1C=C(CO)[C@@H](O)[C@H](O)[C@H]1O (stereo partly drawn)
IC50 (human lysosomal acid alpha-glucosidase; inhibitor; added: pNPG substrate): 10.7 ± 0.25 µg/mL

COc1cc(-c2nc3ccccc3c(=O)n2Nc2ccc([N+](=O)[O-])cc2[N+](=O)[O-])ccc1OCc1cn(CC(=O)Nc2ccc([N+](=O)[O-])cc2C)nn1
inhibition (mushroom tyrosinase; enzyme activity; 40 µM, added: L-DOPA): 36 ± 11%

For quick reference, copied from above:
COc1cc(/C=N/NC(=S)N/N=C/c2ccccc2)ccc1Oc1ccnc2cc(Cl)ccc12
IC50 (human lysosomal acid alpha-glucosidase; inhibitor; added: pNPG substrate): 12.4 ± 0.69 µg/mL
